Published values from different studies.
Lines come from different studies, so protocols differ. ± marks the error that the study gave.
Chymotrypsin-C: Chymotrypsin-C (Homo sapiens, UniProt Q99895)
Sequence of UniProt Q99895 (whole entry, looked up): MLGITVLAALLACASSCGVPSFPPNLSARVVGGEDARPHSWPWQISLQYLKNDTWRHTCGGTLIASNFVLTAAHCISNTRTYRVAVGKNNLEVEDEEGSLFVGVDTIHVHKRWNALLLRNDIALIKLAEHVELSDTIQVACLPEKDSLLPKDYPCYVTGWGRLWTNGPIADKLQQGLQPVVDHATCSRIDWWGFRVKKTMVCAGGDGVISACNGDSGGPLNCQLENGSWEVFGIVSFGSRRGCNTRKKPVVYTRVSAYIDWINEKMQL
Magi2: Membrane-associated guanylate kinase, WW and PDZ domain-containing protein 2 (Magi2, Mus musculus, UniProt Q9WVQ1)
Sequence of UniProt Q9WVQ1 (whole entry, looked up): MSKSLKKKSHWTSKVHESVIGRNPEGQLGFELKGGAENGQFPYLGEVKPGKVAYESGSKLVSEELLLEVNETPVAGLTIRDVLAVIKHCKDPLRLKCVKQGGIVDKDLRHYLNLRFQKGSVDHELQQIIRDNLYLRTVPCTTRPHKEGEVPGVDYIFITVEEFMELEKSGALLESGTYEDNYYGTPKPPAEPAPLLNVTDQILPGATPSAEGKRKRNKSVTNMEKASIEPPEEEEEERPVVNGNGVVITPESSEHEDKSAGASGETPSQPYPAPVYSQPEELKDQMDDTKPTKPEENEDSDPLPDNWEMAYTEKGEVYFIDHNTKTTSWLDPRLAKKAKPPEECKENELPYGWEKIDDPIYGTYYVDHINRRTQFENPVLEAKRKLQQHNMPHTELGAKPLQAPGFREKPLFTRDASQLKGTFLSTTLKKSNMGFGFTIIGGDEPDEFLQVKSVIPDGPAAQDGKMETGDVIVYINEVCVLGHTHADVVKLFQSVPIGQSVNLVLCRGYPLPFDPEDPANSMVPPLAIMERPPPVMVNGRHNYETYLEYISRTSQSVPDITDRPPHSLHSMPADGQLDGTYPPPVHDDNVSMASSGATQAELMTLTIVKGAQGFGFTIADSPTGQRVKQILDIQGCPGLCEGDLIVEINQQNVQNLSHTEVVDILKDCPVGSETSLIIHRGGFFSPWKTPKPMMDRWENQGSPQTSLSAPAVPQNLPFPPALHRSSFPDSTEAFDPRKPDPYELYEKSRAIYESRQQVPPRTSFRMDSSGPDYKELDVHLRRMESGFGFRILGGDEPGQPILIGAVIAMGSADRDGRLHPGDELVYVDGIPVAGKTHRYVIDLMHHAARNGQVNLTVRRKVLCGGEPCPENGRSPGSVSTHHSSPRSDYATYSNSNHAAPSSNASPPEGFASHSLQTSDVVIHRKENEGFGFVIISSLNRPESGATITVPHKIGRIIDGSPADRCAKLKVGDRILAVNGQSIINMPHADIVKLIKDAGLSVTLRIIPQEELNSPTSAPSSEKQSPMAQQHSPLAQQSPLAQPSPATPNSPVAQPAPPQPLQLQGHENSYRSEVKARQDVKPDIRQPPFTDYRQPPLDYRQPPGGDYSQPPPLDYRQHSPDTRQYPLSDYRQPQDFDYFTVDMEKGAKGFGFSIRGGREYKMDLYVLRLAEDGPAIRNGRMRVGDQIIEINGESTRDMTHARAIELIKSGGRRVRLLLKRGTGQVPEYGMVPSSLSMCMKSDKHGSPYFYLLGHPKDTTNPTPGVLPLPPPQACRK
Sequence of UniProt P52735 (whole entry, looked up): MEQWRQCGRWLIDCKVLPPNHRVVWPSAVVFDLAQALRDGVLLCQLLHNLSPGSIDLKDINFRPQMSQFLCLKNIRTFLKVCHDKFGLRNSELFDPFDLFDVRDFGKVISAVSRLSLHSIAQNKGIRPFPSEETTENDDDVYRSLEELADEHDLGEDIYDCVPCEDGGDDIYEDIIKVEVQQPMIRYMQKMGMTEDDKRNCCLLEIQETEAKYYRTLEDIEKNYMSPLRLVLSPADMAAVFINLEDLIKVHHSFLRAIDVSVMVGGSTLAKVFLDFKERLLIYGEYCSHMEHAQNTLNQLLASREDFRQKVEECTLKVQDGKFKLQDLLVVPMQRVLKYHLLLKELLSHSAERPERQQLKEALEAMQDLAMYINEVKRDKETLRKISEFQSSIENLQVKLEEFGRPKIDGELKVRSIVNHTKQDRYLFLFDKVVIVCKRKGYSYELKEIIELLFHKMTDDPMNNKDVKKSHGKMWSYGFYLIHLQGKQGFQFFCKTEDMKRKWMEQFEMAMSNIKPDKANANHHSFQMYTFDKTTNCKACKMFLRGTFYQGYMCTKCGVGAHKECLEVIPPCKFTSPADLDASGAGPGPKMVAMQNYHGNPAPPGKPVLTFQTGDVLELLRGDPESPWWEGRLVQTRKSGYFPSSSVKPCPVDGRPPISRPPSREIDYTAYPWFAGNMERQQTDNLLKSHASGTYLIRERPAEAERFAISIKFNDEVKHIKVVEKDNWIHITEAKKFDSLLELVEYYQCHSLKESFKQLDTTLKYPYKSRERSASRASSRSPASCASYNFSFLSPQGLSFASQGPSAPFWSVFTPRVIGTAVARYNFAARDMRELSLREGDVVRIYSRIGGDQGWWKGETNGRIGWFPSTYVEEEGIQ
Sequence of UniProt Q9UI08 (whole entry, looked up): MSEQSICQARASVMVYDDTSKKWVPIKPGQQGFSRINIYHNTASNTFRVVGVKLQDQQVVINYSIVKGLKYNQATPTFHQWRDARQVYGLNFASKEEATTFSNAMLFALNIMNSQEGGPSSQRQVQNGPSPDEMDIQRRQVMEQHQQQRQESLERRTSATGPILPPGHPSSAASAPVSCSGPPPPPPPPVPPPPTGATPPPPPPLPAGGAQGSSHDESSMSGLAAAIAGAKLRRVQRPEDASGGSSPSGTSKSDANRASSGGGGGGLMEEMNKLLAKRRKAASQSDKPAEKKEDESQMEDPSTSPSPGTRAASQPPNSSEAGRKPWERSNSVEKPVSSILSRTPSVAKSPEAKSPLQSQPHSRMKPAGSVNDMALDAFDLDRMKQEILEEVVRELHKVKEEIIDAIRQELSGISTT
Sequence of UniProt O95619 (whole entry, looked up): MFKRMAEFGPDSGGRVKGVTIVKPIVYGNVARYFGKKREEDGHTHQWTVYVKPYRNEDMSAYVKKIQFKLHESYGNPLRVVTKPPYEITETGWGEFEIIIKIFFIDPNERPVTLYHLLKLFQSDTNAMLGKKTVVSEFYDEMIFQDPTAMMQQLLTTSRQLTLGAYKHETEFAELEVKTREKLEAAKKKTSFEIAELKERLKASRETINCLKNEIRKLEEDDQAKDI
Sequence of UniProt Q04917 (whole entry, looked up): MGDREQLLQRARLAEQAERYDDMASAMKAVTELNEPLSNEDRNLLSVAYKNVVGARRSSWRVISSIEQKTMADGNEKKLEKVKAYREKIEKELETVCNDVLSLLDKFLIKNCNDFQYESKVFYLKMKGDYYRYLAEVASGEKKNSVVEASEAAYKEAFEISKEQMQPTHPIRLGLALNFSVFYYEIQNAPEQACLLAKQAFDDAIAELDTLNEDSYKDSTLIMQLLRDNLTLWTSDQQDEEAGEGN
Sequence of UniProt Q9NYY3 (whole entry, looked up): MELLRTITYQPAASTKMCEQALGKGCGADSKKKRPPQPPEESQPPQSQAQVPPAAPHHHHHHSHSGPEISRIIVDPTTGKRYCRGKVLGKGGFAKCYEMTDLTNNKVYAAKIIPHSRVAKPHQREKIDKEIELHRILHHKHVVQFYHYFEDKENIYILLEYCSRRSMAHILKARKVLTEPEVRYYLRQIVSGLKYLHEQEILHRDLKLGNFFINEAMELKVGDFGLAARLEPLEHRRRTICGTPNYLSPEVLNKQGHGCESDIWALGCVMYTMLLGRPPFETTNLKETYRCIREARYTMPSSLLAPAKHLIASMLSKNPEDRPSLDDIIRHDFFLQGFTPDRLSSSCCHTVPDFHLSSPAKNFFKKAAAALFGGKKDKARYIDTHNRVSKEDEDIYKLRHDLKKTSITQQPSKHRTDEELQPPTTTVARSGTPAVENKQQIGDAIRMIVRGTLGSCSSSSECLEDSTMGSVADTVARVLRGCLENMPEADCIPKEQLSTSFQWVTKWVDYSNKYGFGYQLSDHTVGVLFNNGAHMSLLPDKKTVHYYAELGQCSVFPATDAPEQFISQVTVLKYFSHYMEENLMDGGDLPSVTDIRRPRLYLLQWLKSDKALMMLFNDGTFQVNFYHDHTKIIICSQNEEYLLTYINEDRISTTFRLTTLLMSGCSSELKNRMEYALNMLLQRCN
Sequence of UniProt P36507 (whole entry, looked up): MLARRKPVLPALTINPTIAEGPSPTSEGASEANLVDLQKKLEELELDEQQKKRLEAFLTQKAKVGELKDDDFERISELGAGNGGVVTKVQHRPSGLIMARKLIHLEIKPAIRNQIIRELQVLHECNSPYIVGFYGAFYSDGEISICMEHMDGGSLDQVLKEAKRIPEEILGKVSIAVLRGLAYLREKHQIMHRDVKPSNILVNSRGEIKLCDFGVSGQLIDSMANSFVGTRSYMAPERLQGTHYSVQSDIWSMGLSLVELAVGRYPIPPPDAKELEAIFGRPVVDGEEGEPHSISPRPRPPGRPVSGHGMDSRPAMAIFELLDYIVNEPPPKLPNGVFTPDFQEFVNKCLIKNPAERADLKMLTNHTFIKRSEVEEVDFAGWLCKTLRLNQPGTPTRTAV
Sequence of UniProt Q07820 (whole entry, looked up): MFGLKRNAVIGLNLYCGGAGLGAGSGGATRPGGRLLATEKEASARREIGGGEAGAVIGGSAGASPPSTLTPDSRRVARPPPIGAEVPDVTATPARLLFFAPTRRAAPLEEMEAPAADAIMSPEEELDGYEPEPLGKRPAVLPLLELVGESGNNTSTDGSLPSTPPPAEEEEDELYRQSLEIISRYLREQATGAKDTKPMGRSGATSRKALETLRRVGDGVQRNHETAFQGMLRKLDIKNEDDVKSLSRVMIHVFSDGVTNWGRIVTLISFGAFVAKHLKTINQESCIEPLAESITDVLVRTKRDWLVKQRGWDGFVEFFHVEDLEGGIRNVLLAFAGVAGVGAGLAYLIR

With `CC(=O)N[C@@H](CO)C(=O)N[C@@H](Cc1ccccc1)C(=O)N[C@@H](CCC(=O)O)C(=O)N[C@@H](Cc1ccccc1Cl)C(=O)N1CCC[C@]12C=C[C@@H]1CC[C@@H](C(=O)N3CC[C@@H]4C=C[C@H]5CC[C@@H](C(=O)N[C@H](C(=O)N[C@@H](CCC(=O)O)C(=O)N[C@@H](CC(=O)O)C(=O)N[C@@H](CCC(=O)O)C(=O)N[C@@H](CC(C)C)C(N)=O)[C@@H](C)O)N5C(=O)[C@H]43)N1C2=O` the Kd was 260 nM (Ena/VASP-like protein, EVH1 domain (EVL, Homo sapiens, UniProt Q9UI08); isothermal titration calorimetry).
`O=C(N[C@@H]1c2ccccc2C[C@H]1N1CCCC1)c1ccc(-c2ccnc3[nH]ccc23)nc1` gave a Kd of 3000 nM (Dual specificity mitogen-activated protein kinase kinase 2 (MAP2K2, Homo sapiens, UniProt P36507); binding, competition with immobilised ligand).
With `CC(C)C[C@@H]1NC(=O)[C@H](CC(C)C)NC(=O)[C@H](CC(C)C)NC(=O)[C@H]([C@@H](C)O)NC(=O)[C@@H]2CSSC[C@@H]3NC(=O)[C@H]([C@@H](C)O)NC(=O)[C@H](CC(N)=O)NC(=O)[C@H](CSSC[C@@H](C(=O)N[C@H](C(=O)N[C@@H](CCC(N)=O)C(=O)O)C(C)C)NC1=O)NC(=O)[C@H](CCCCN)NC(=O)[C@H](CC(=O)O)NC(=O)[C@H](CCCCN)NC(=O)[C@H](Cc1ccccc1)NC(=O)[C@H]([C@@H](C)O)NC(=O)[C@H]([C@@H](C)O)NC(=O)CNC(=O)[C@@H]1CCCN1C(=O)[C@H](CCC(=O)O)NC(=O)[C@@H](NC(=O)[C@@H](NC(=O)[C@@H](NC(=O)[C@H](CCC(=O)O)NC(=O)[C@H](CO)NC(=O)CN)C(C)C)[C@@H](C)O)CSSC[C@H](NC(=O)[C@H](CCCNC(=N)N)NC3=O)C(=O)NCC(=O)N[C@@H](CO)C(=O)N[C@@H](CC(=O)O)C(=O)NCC(=O)N[C@@H](CCCCN)C(=O)N[C@@H](CO)C(=O)N[C@@H](C)C(=O)N[C@@H](Cc1c[nH]c3ccccc13)C(=O)N2` the Kd was 5.15 nM (Chymotrypsin-C; cell-free assay, FP; pH 8).
With `CC[C@H](C)[C@H](NC(=O)[C@H](CO)NC(=O)[C@H](CO)NC(=O)[C@H](CCC(=O)O)NC(=O)[C@H](CCC(=O)O)NC(=O)[C@H](CCCCN)NC(=O)[C@H](CO)NC(=O)[C@@H](NC(=O)[C@H](CO)NC(=O)[C@H](CC(C)C)NC(=O)[C@H](Cc1ccccc1)NC(=O)[C@H](CCCNC(=N)N)NC(=O)[C@H](C)NC(=O)[C@H](Cc1ccccc1)NC(=O)[C@H](Cc1ccccc1)NC(=O)[C@@H]1CCCN1C(=O)[C@H](CC(C)C)NC(=O)[C@H](C)NC(=O)[C@H](CCCCN)NC(=O)CNC(=O)[C@H](CCC(N)=O)NC(=O)[C@H](CCC(N)=O)NC(=O)[C@H](CC(=O)O)NC(=O)[C@H](CC(N)=O)NC(=O)[C@@H]1CCCN1C(=O)[C@H](Cc1ccc(O)cc1)NC(=O)[C@H](C)NC(=O)[C@@H](N)CCSC)C(C)C)C(=O)N[C@@H](CCCCN)C(=O)N[C@@H](CO)C(=O)N1CCC[C@H]1C(=O)N[C@@H](CO)C(=O)N1CCC[C@H]1C(=O)N[C@@H](CC(=O)O)C(=O)N[C@@H](Cc1c[nH]cn1)C(=O)N[C@@H](CCC(=O)O)C(=O)N[C@H](C(=O)N[C@@H](CO)C(=O)N[C@H](C(=O)N[C@@H](CCCNC(=N)N)C(=O)N[C@@H](CCCCN)C(=O)N[C@@H](Cc1ccc(O)cc1)C(=O)N1CCC[C@H]1C(=O)N[C@@H](CO)C(=O)N[C@@H](CC(=O)O)C(=O)N[C@@H](Cc1c[nH]c2ccccc12)C(=O)N[C@@H](CCC(=O)O)C(=O)N[C@@H](CCC(=O)O)C(=O)N[C@@H](Cc1c[nH]c2ccccc12)C(=O)O)[C@@H](C)O)[C@@H](C)CC` the Kd was 568 ± 80 nM (uncharacterized protein (Microcystis aeruginosa MRC, UniProt B2G3D0, D281A)).
The Kd of `CSCC[C@H](NC(=O)CNC(=O)[C@H](CCCNC(=N)N)NC(=O)[C@H](C)NC(=O)[C@@H](NC(=O)[C@H](CCC(N)=O)NC(=O)[C@H](Cc1ccc(OP(=O)(O)O)cc1)NC(=O)[C@H](C)NC(=O)[C@H](CS)NC(=O)[C@H](CO)NC(=O)[C@@H](NC(=O)[C@H](CC(C)C)NC(=O)[C@H](CC(=O)O)NC(=O)[C@H](CCCCN)NC(=O)[C@H](CO)NC(=O)[C@H](CO)NC(=O)c1ccc2c(c1)C(=O)OC21c2ccc(N(C)C)cc2Oc2cc(N(C)C)ccc21)C(C)C)C(C)C)C(=O)N[C@@H](CCC(=O)O)C(=O)N[C@@H](CC(=O)O)C(=O)O` is reported as 62 nM (Guanine nucleotide exchange factor VAV2, SH2 domain (VAV2, Homo sapiens, UniProt P52735); binding).
The Kd of `CC(=O)N[C@@H](CCCNC(=N)N)C(=O)N[C@H](C(=O)N[C@@H](CCCCN)C(=O)N[C@@H](CO)C(=O)N[C@@H](CCCNC(=N)N)C(=O)N[C@H](C(=O)N[C@@H](Cc1c[nH]c2ccccc12)C(=O)N[C@@H](C)C(=O)N1Cc2ccccc2C[C@H]1C(N)=O)[C@@H](C)OP(=O)(O)O)[C@@H](C)O` is reported as 30.9 nM (14-3-3 protein epsilon (Homo sapiens, UniProt P62258); binding, SPR; pH 7.4).
`CC(C)C[C@H](NC(=O)[C@@H]1CCCN1C(=O)CCOCCOCCOCCOCCOCCOCCOCCOCCNC(=S)Nc1ccc2c(c1)C(=O)OC21c2ccc(O)cc2Oc2cc(O)ccc21)C(=O)N[C@@H](Cc1cncn1CCCCCCCCc1ccccc1)C(=O)N[C@@H](C)C(=O)N[C@H](C(N)=O)[C@@H](C)CP(=O)(O)O` has a Kd of > 2560 nM (Serine/threonine-protein kinase PLK2, polo-box (PLK2, Homo sapiens, UniProt Q9NYY3); binding, FP).
`CC[C@H](C)[C@H](NC(=O)[C@H](CCC(=O)O)NC(=O)[C@H](CCCNC(=N)N)NC(=O)[C@H](C)NC(=O)[C@H](C)NC(=O)[C@H](CCC(N)=O)NC(=O)[C@H](CCC(=O)O)NC(=O)[C@H](CCC(=O)O)NC(C)=O)C(=O)NCC(=O)N[C@@H](C)C(=O)N[C@@H](CCC(N)=O)C(=O)N[C@@H](CC(C)C)C(=O)N[C@@H](CCCNC(=N)N)C(=O)N[C@@H](CCCNC(=N)N)C(=O)N[C@@H](CCSC)C(=O)N[C@@H](C)C(=O)N[C@@H](CC(=O)O)C(=O)N[C@@H](CC(=O)O)C(=O)N[C@@H](CC(C)C)C(=O)N[C@@H](CC(N)=O)C(=O)N[C@@H](C)C(=O)N[C@@H](CCC(N)=O)C(=O)N[C@@H](Cc1ccc(O)cc1)C(=O)N[C@@H](CCC(=O)O)C(=O)N[C@@H](CCCNC(=N)N)C(N)=O` has a Kd of 50 nM (BCL-2 ΔC human; binding, ITC).
The Kd of `CSCC[C@@H]1NC(=O)[C@H](CC(C)C)NC(=O)[C@H]([C@@H](C)O)NC(=O)[C@@H]2CSSC[C@@H]3NC(=O)[C@H]([C@@H](C)O)NC(=O)[C@H](CC(N)=O)NC(=O)[C@H](CSSC[C@@H](C(=O)N[C@@H](CC(=O)O)C(=O)N[C@@H](CCC(N)=O)C(=O)O)NC(=O)[C@H](CC(C)C)NC1=O)NC(=O)[C@H](CCCCN)NC(=O)[C@H](CC(=O)O)NC(=O)[C@H](CCCCN)NC(=O)[C@H](Cc1ccccc1)NC(=O)[C@H]([C@@H](C)O)NC(=O)[C@H]([C@@H](C)O)NC(=O)CNC(=O)[C@@H]1CCCN1C(=O)[C@H](CCC(=O)O)NC(=O)[C@@H](NC(=O)[C@@H](NC(=O)[C@@H](NC(=O)[C@H](CCC(=O)O)NC(=O)[C@H](CO)NC(=O)CN)C(C)C)[C@@H](C)O)CSSC[C@H](NC(=O)[C@H](CCCNC(=N)N)NC3=O)C(=O)NCC(=O)N[C@@H](CO)C(=O)N[C@@H](CC(=O)O)C(=O)NCC(=O)N[C@@H](CCCCN)C(=O)N[C@@H](CO)C(=O)N[C@@H](C)C(=O)N[C@@H](Cc1ccc(O)cc1)C(=O)N2` is reported as 0.2 nM (Chymotrypsin-C; cell-free assay, FP; pH 8).
`CC(C)C[C@H](NC(=O)[C@H](CO)NC(=O)[C@@H]1CCCN1C(=O)[C@H](CCC(N)=O)NC(=O)[C@@H](NC(=O)[C@H](C)NC(=O)[C@H](CCCCN)NC(=O)[C@H](CC(C)C)NC(=O)[C@H](Cc1ccc(O)cc1)NC(=O)[C@H](COP(=O)(O)O)NC(=O)[C@H](Cc1ccccc1)NC(=O)[C@H](CCCNC(=N)N)NC(=O)[C@H](CCCNC(=N)N)NC(=O)[C@H](C)NC(=O)[C@H](C)N)[C@@H](C)O)C(=O)O` has a Kd of 90 ± 10 nM (Magi2; ITC; pH 8.0, 25 °C, together with: tandem peptide).
`CC(=O)NC1C(OC2C(O)C(CO)OC(O)C2OC2OC(C)C(O)C(O)C2O)OC(CO)C(O)C1O` (stereo not drawn) gave a Kd of 8270 nM (Intermedilysin, domain 4 (Streptococcus intermedius, UniProt Q9LCB8); binding).
The Kd of `CC(C)C[C@H](NC(=O)[C@H](CCP(=O)(O)O)NC(=O)[C@@H](NC(=O)[C@@H](NC(=O)[C@H](CCCNC(=N)N)NC(=O)[C@H](CC(C)C)NC(=O)[C@H](CO)NC(=S)Nc1ccc2c(c1)C(=O)OC21c2ccc(O)cc2Oc2cc(O)ccc21)[C@@H](C)O)C(C)C)C(=O)NCC(=O)N[C@@H](C)C(=O)NCC(=O)N[C@@H](C)C(=O)N[C@@H](Cc1c[nH]c2ccccc12)C(=O)N[C@@H](CC(C)C)C(=O)N[C@H](C(=O)N1CCC[C@H]1C(=O)N[C@@H](CCCNC(=N)N)C(=O)O)C(C)C` is reported as 19000 nM (14-3-3 protein eta (Homo sapiens, UniProt Q04917); binding, fluorescence anisotropy; pH 7.5, FITC-labelled phosphopeptide titration).
With `CC(C)C[C@H](NC(=O)[C@H](CO)NC(=O)[C@@H]1CCCN1C(=O)[C@H](CCC(N)=O)NC(=O)[C@@H](NC(=O)[C@H](C)NC(=O)[C@H](Cc1ccc(O)cc1)NC(=O)[C@H](CC(C)C)NC(=O)[C@H](Cc1ccc(O)cc1)NC(=O)[C@H](COP(=O)(O)O)NC(=O)[C@H](CCC(=O)O)NC(=O)[C@H](CCCNC(=N)N)NC(=O)[C@H](CCCNC(=N)N)NC(=O)[C@H](C)NC(=O)[C@H](C)N)[C@@H](C)O)C(=O)O` the Kd was 270 ± 70 nM (Magi2; ITC; pH 8.0, 25 °C, together with: tandem peptide).
For `CC[C@H](C)[C@@H]1NC(=O)[C@H](CC(C)C)NC(=O)[C@H](CCC(=O)O)NC(=O)[C@H](CC(=O)O)NC(=O)[C@H](CCCNC(=N)N)NC(=O)[C@H](Cc2c[nH]c3ccccc23)NC(=O)[C@H](Cc2ccccc2)NC(=O)[C@H](CC(C)C)NC(=O)[C@H](CC(C)C)NC(=O)[C@H](Cc2ccc(O)cc2)NC(=O)CSC[C@@H](C(=O)NCC(=O)N[C@@H](CO)C(=O)N[C@@H](CCC(=O)O)C(=O)N[C@@H](CCCNC(=N)N)C(N)=O)NC(=O)[C@H](CC(C)C)NC(=O)[C@H](CC(C)C)NC1=O`, the Kd was 7.1 nM (Induced myeloid leukemia cell differentiation protein Mcl-1 (MCL1, Homo sapiens, UniProt Q07820); binding, SPR).
`CC(=O)NCCCC[C@H](NC(=O)CNC(=O)CNC(=O)[C@@H](NC(=O)[C@H](CO)NC(=O)[C@H](CCCCNC(C)=O)NC(=O)[C@H](CCCNC(=N)N)NC(=O)[C@H](C)NC(=O)[C@@H](NC(=O)[C@@H](N)CCC(N)=O)[C@@H](C)O)[C@@H](C)O)C(=O)N[C@@H](C)C(=O)N1CCC[C@H]1C(=O)N[C@@H](CCCNC(=N)N)C(=O)N[C@@H](CCCCN)C(=O)N[C@@H](CCC(N)=O)C(=O)O` has a Kd of 120000 ± 6000 nM (YEATS domain-containing protein 4, YEATS domain (Homo sapiens, UniProt O95619); isothermal titration calorimetry; pH 7.6, 25 °C, together with: histone peptide).

Excerpt of the above:
The Kd of `CC(C)C[C@H](NC(=O)[C@H](CCP(=O)(O)O)NC(=O)[C@@H](NC(=O)[C@@H](NC(=O)[C@H](CCCNC(=N)N)NC(=O)[C@H](CC(C)C)NC(=O)[C@H](CO)NC(=S)Nc1ccc2c(c1)C(=O)OC21c2ccc(O)cc2Oc2cc(O)ccc21)[C@@H](C)O)C(C)C)C(=O)NCC(=O)N[C@@H](C)C(=O)NCC(=O)N[C@@H](C)C(=O)N[C@@H](Cc1c[nH]c2ccccc12)C(=O)N[C@@H](CC(C)C)C(=O)N[C@H](C(=O)N1CCC[C@H]1C(=O)N[C@@H](CCCNC(=N)N)C(=O)O)C(C)C` is reported as 19000 nM (14-3-3 protein eta (Homo sapiens, UniProt Q04917); binding, fluorescence anisotropy; pH 7.5, FITC-labelled phosphopeptide titration).
The Kd of `CC(=O)N[C@@H](CCCNC(=N)N)C(=O)N[C@H](C(=O)N[C@@H](CCCCN)C(=O)N[C@@H](CO)C(=O)N[C@@H](CCCNC(=N)N)C(=O)N[C@H](C(=O)N[C@@H](Cc1c[nH]c2ccccc12)C(=O)N[C@@H](C)C(=O)N1Cc2ccccc2C[C@H]1C(N)=O)[C@@H](C)OP(=O)(O)O)[C@@H](C)O` is reported as 30.9 nM (14-3-3 protein epsilon (Homo sapiens, UniProt P62258); binding, SPR; pH 7.4).
